# Published values gathered from unrelated publications.
# Each numbered part is a random draw from the data of one study; scales do not carry over between parts.

# Set 1
# Target: Max dimerization protein 1, bHLH-zipper, MAX partner unstated (MXD1, Homo sapiens, UniProt Q05195, residues 56-136)
# Technique: protein-binding microarray
# Form: double-stranded DNA, one strand shown
# Medium: in vitro
# Concentration: not given
# Setting: k-mer, scored over probes, only values ≥0.25
# Reading: higher = stronger binding
# Construct (chain): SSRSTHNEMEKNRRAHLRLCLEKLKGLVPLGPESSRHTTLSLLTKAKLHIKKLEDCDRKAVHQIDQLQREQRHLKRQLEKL
Oligonucleotide,E-score
ACGTGAGA,0.343
AGCGTGTC,0.334
ACGCAACA,0.267

# Set 2
# Target: Interferon regulatory factor 7, full length, phosphomimetic (IRF7, Homo sapiens, UniProt Q92985, residues 1-503, S101K/S471D/S472D/S475D/S476D/S477D/S483D/S484D/S487D)
# UniProt Q92985, sequence (whole entry, unmodified, looked up): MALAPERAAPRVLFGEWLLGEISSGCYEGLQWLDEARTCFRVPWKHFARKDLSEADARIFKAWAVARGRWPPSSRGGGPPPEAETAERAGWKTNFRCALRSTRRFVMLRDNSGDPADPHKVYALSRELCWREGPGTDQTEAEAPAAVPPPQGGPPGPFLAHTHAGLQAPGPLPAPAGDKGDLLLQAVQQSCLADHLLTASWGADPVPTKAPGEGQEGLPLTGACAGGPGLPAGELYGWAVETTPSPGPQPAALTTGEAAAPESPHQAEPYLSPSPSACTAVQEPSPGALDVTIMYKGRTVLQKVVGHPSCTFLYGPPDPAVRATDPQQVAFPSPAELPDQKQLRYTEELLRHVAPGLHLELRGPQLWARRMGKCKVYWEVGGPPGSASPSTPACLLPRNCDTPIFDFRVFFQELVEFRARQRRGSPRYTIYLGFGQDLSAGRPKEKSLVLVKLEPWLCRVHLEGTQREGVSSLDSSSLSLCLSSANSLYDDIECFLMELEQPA
# Technique: protein-binding microarray
# Form: double-stranded DNA, one strand shown
# Medium: in vitro
# Concentration: 250 nM
# Setting: 60-bp whole probe
# With: salmon DNA 0.4 mg/ml
# Relative to: random background probes
# Reading: higher = stronger binding
# All sequences stand within: GCCTAGCAC … GTGCTAGGTCTTGATTCGCTTGACGCTGCTG
Oligonucleotide,log fluorescence
AAACCATTTTTTTTCACTAT,0.722 z-score
TCACCTCTGCTGCTGGCACT,-0.473 z-score
GACGGTATCCTTTTTCTGAC,0.35 z-score
TTAGGTATCCGTTTCCTTTA,2.55 z-score
GACGGTTGCGGACTGGGGAC,-0.465 z-score

# Set 3
# Target: Prothrombin, mature alpha-thrombin (F2, Homo sapiens, UniProt P00734)
# Technique: aptamer microarray, sandwich
# Form: DNA with 2'F-ANA
# Medium: in vitro
# Concentration: 200 nM
# Setting: whole 15-mer aptamer, many near background
# With: Cy3 exosite-II aptamer, 400 nM
# Reading: higher = stronger binding
Oligonucleotide,mean fluorescence intensity [a.u.]
GGTTGGTGTGGTTGG (2'F-ANA at 1 3 8 11 12 14 15),136
GGTTGGTGTGGTTGG (2'F-ANA at 1 3 5 9 10 11 15),54.5
GGTTGGTGTGGTTGG (2'F-ANA at 5 9 10 11),54.5

# Further values, each from its own experiment
Molecule,target,test,test system,setting,how to read,measurement,result
"PhoQ, residues 284 288 289 292 302 303 SSCLAV","PhoP, residues 12 14 15 18 19 QYFSL (Escherichia coli, UniProt P23836)","Sort-seq, item: YFP reporter",E. coli,"PhoQ-PhoP variant library, with: 10 µM Mg2+","relative to: high Mg2+ state, higher = stronger signaling",fold induction,23.3

# A few entries again (set 2):
Oligonucleotide,log fluorescence
TTAGGTATCCGTTTCCTTTA,2.55 z-score
